Results collected from several papers.
Compare with care: the assays were run in different laboratories. ± marks the error that the study gave. In brackets after ≈: the same amount, converted by molar mass.
Organism: Plasmodium falciparum

O=C1C2=C(Nc3ccccc3SC2c2ccc(O)c(O)c2)c2ccccc21 (racemic)  EC50 (growth, [3H]hypoxanthine incorporation; Dd2): > 5000 nM
COc1ccc2c(c1)[n+]([O-])c(C#N)c(-c1ccco1)[n+]2[O-]  resistance index (K1 chloroquine-resistant; baseline: K1 IC50 over 3D7 IC50): 0.44
C[C@H]1C(=O)O[C@@H]2O[C@@]3(C)CC[C@@H]4[C@@]2(OO3)[C@H]1CC[C@]4(C)O  MIC90 (parasite growth, SYBR Green I; 3D7): 0.103 ± 0.0029 µM (≈ 0.0307 µg/mL)
Cc1c(-c2ccc(Cc3ccc(OC(F)(F)F)cc3)cc2)[nH]c2cccc(F)c2c1=O  selectivity ratio (HepG2, 3D7; baseline: CC50 HepG2 over EC50 3D7): > 625
CN(C)CCCOc1ccc(C2Sc3ccccc3NC3=C2C(=O)c2ccccc23)cc1 (racemic)  EC50 (growth, hypoxanthine uptake; Dd2 expressing yeast DHOD): > 5000 nM
COC1=CC(c2ccc[nH]2)=NC1=Cc1[nH]c(Cc2ccc(Cl)cc2)cc1Cc1ccc(Cl)cc1  IC50 (parasite growth; 7G8, chloroquine-resistant): 5.5 nM
O=C1C2=C(Nc3ccccc3SC2c2ccsc2)c2ccccc21 (racemic)  fold resistance (Dd2 expressing yeast DHOD; added: 0.5 nM proguanil; baseline: transgenic over parental Dd2): 0.96
CN1CCC[C@@H]1C(=O)N[C@@H](Cc1ccc(-c2ccccc2)cc1)B(O)O  LD50 (flow cytometry; 3D7; 72 h): 21 nM
Cc1ccc2c(c1)[n+]([O-])c(C#N)c(-c1ccco1)[n+]2[O-]  resistance index (K1 chloroquine-resistant; baseline: K1 IC50 over 3D7 IC50): 0.6
CCC1=CC(=CNC2CCCCCCC2)N=C1c1ccc[nH]1  IC50 (parasite growth; Dd2, chloroquine-resistant): > 250 nM
COC(=O)c1[nH]c(C(=O)OC)c2c1-c1c[nH]c3ccc(Cl)c(c13)C21C=Nc2ccc(Cl)cc21 (racemic)  EC50 (parasite growth, SYBR Green; DD2; 72 h, drug-resistant strain, blood stage): 4200 nM
C1=CC(c2ccc[nH]2)=NC1=CNC12CC3CC(CC(C3)C1)C2  selectivity index (HepG2, D6; baseline: HepG2 IC50 over D6 IC50): 205
CC[C@H](C)[C@H](NC(=O)[C@H](Cc1ccccc1)NC(=O)[C@H](CC(C)C)NC(=O)[C@]1(C)CCCC=CCCC[C@](C)(NC(=O)[C@H](CC(C)C)NC(=O)[C@H](CCCCN)NC(=O)[C@H](CCC(N)=O)NC(=O)[C@H](CO)NC(=O)CNC(=O)CCNC(=O)c2ccc3c(c2)C(=O)OC32c3ccc(O)cc3Oc3cc(O)ccc32)C(=O)N[C@@H](CCC(N)=O)C(=O)N[C@@H](C)C(=O)N[C@@H](C)C(=O)N1)C(=O)NCC(=O)N[C@@H](CO)C(=O)N[C@@H](CCCCN)C(=O)N[C@@H](CC(C)C)C(=O)N[C@H](C(=O)N[C@H](C(N)=O)[C@@H](C)O)[C@@H](C)O  parasitemia reduction (CS2; 15 µM, 24 h, late-stage iRBC): ~50%
CC(C)C1=CC(=CNC2CCCCCC2)N=C1c1ccc[nH]1  IC50 (parasite growth; Dd2, chloroquine-resistant): 1970 nM
O=c1[nH]c(=O)c2cccc(O)c2o1  antiplasmodial activity (K1, multidrug-resistant; up to 10 µg/mL): inactive

For quick reference, copied from above:
O=C1C2=C(Nc3ccccc3SC2c2ccsc2)c2ccccc21 (racemic)  fold resistance (Dd2 expressing yeast DHOD; added: 0.5 nM proguanil; baseline: transgenic over parental Dd2): 0.96
